Results from different studies.
Compare with care: the assays were run in different laboratories. “And” joins repeats or separate records; there may be more than shown. ± gives the spread as reported.

CC(C)CC(O)(CC(C)C)c1cn(C(=O)N2CCCC2)nn1: “SILAC activity ratio” 0.9 and 1.04 and 0.93 and 0.95 and 0.85 and 0.91 (Abhd6 (Mus musculus, UniProt Q8R2Y0); probe labelling, inhibitor, competitive ABPP-SILAC; mouse T cells; concentration not given, 4 h, single peptide; baseline: treated over DMSO cells, lower = stronger inhibition).
The Emax of CC[C@H](C)[C@H](NC(=O)[C@H](CCCNC(=N)N)NC(=O)[C@H](CCCNC(=N)N)NC(=O)[C@H](CC(C)C)NC(=O)[C@H](Cc1ccccc1)NC(=O)CNC(=O)CNC(=O)[C@@H](N)Cc1ccc(O)cc1)C(=O)N[C@@H](CCCNC(=N)N)C(=O)N1CCC[C@H]1C(=O)N[C@@H](CCCCN)C(=O)N[C@@H](CC(C)C)C(=O)N[C@@H](CCCCN)C(=O)O is reported as 31.4% and 25.9% (GPR139 (Homo sapiens, UniProt Q6DWJ6); G protein activation, agonist, BRET, measured: Gα15; HEK-293T/17; 40 µM; baseline: GαoA response).
Cc1cc(-c2ccc3ccccc3c2)nnc1NCCN1CCN(C)CC1 has an activity of 4% (ADORA2A (Homo sapiens, UniProt P29274); antagonist; 10000 nM; baseline: control).
N[C@H](C(=O)N1CCCC1)C1CCN(c2nccc3c(-c4ncc(Cl)cc4Cl)cccc23)CC1 gave a melting temperature of 51.7 °C (Luciferin 4-monooxygenase (Photinus pyralis, UniProt P08659); thermal shift; 0.00302 µM, control protein).
O=C1NC(=O)c2c1c1cc(F)c[n+]3c1c1c2c2cc(O)ccc2[n]1[Ru-4]312([N]=C=S)[S+]3CC[S+]1CC[S+]2CC3 (centres unmarked) has a remaining activity of 81% (PRKD2 (Homo sapiens, UniProt Q9BZL6); enzyme activity; 100 nM, human enzyme, with: 10 µM ATP; baseline: untreated).
With CC(C)[C@H]1NC(=O)C[C@H]2/C=C/CCSSC[C@@H](NC1=O)C(=O)N[C@H](Cc1cccc3ccccc13)C(=O)NCC(=O)O2 the inhibition was 7.5% (RET (Homo sapiens, UniProt P07949, Y791F); enzyme activity, inhibitor; 10 µM).
Cn1nc(CCN)c(=O)c2c(=O)[nH]c(N)nc21: “melting temperature shift” 0.9 °C (folP (Bacteria, UniProt P0AC13); CETSA HiBiT; Escherichia coli, whole cells; concentration not given; baseline: DMSO).
CS(C)(=O)=Nc1ccc(-c2ccc(-c3nc4cc(O[C@@H]5CO[C@H]6[C@@H]5OC[C@H]6O)[nH]c4cc3F)cc2)cc1 has an inhibition of -13% (BMPR1B (Homo sapiens, UniProt O00238); enzyme activity, inhibitor; 10 µM).
CN(C)[C@H]1C[C@@]23CC[C@@]4(O2)C(=CC[C@]2(C)[C@@H](c5ccc6ccncc6c5)CC[C@H]24)C=C3[C@@H](O)[C@@H]1O has an inhibition of -7.3% (RPS6KB2 (Homo sapiens, UniProt Q9UBS0); ATP probe labelling, inhibitor, KiNativ profiling; 1 µM).
CCOC(=O)[C@@H]1Cc2c(cc([N+](=O)[O-])cc2[N+](=O)[O-])[C@H](O)[C@]12C(=O)Nc1ccc(Br)cc12 gave a remaining binding of 89% (CDK16 (Homo sapiens, UniProt Q00536); binding, competition with immobilised ligand; 0.1 µM).
CCN(N=Cc1cnc2ccc(Br)cn12)S(=O)(=O)c1cc([N+](=O)[O-])ccc1C: “IC50 fold change” 1 (PIK3CA (Homo sapiens, UniProt P42336); Kinase-Glo luminescence; baseline: wild type).
With O=C(O)c1cccc(CP(=O)(O)O)n1 the koff was 0.00433 ± 0.000167 s⁻¹ (VIM-2 (Escherichia coli, UniProt Q5U7L7); enzyme activity, inhibitor; with: nitrocefin).
Cc1ccc(N2CC3CCC(C2)N3C)cc1C(=O)N[C@H](C)c1cc(-c2cnn(C)c2)nc2ccccc12 gave a remaining activity of 100% (USP2 (Homo sapiens, UniProt O75604); enzyme activity; 30 µM, 0.5 h).
For C=CC(=O)NC[C@H](NC(=O)[C@H](CC1CCCCC1)NC(=O)[C@H](CCC(N)=O)NC(C)=O)C(=O)N[C@@H](CC(C)C)C(=O)N[C@@H](Cc1ccccc1)C(=O)O, the ΔG was -8.3 kcal/mol (Beta sliding clamp (Escherichia coli, UniProt P0A988, H175G); isothermal titration calorimetry; 25 °C).

For quick reference, copied from above:
Cc1ccc(N2CC3CCC(C2)N3C)cc1C(=O)N[C@H](C)c1cc(-c2cnn(C)c2)nc2ccccc12 gave a remaining activity of 100% (USP2 (Homo sapiens, UniProt O75604); enzyme activity; 30 µM, 0.5 h).
N[C@H](C(=O)N1CCCC1)C1CCN(c2nccc3c(-c4ncc(Cl)cc4Cl)cccc23)CC1 gave a melting temperature of 51.7 °C (Luciferin 4-monooxygenase (Photinus pyralis, UniProt P08659); thermal shift; 0.00302 µM, control protein).
